Results gathered from unrelated publications.
Parts stem from different laboratories: compare values within a part only. Changes are numbered by the printed parent chain.

Set 1
Target: Protein C-ets-1 (ETS1, Homo sapiens, UniProt P14921, residues 1-441, Y397A, full length assumed)
Method: protein-binding microarray
Molecule type: double-stranded DNA, one strand shown
Matrix: in vitro
Concentration: not given
Notes: k-mer, scored over probes, only values ≥0.25
Reading: higher = stronger binding
Target sequence (chain): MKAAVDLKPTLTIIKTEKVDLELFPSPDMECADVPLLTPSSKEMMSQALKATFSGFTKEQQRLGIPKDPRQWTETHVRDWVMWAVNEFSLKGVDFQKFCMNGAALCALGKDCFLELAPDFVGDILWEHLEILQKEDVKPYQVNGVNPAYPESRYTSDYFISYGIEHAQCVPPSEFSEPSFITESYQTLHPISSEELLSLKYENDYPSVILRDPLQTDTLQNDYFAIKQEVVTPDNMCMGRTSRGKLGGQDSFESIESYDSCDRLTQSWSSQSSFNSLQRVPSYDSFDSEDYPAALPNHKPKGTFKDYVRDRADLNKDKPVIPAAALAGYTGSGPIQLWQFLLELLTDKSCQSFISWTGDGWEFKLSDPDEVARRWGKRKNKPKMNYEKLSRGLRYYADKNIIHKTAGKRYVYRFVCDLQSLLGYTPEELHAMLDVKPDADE
| Oligonucleotide | E-score |
| --- | --- |
| TCCCCGCA | 0.263 |
| CGACAAAA | 0.457 |
| CGCGGAAG | 0.335 |
| ACATTGCA | 0.253 |
| CAAATATC | 0.285 |
| ACTTCCGC | 0.482 |
| ATATACTG | 0.266 |
| ACGCCCAC | 0.279 |
| CATTTGTC | 0.293 |
| TTTGCAAA | 0.347 |

Set 2
Target: Hepatocyte nuclear factor 3-alpha (Foxa1, Mus musculus, UniProt P35582, residues 1-468, full length assumed)
Method: EMSA with sequencing
Molecule type: double-stranded DNA, one strand shown
Matrix: in vitro
Concentration: 10 and 20 nM
Notes: whole designed probe, mean of two concentrations, ends assumed
Relative to: negative control set to 0
Reading: higher = stronger binding
Constant ends, left off below: GTGAGCGGTGCCCATTGATGGGGAAC … TTTCACTGGGATCGTGGGGAC
Target sequence (chain): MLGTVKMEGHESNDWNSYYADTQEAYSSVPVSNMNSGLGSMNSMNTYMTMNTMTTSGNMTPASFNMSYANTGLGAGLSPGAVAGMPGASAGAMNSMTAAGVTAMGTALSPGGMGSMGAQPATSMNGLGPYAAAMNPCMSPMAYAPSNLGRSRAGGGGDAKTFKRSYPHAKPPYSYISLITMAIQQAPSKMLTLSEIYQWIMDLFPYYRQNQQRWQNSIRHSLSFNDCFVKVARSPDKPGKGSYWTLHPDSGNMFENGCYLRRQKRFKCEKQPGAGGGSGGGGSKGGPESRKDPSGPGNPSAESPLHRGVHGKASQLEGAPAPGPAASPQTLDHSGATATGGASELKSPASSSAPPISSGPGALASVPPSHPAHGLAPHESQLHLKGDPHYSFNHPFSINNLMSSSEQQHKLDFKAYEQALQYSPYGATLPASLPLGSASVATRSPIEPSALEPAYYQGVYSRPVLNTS
| Oligonucleotide | normalised bound fraction [ratio] |
| --- | --- |
| TCCACTGGGATAAATTTATTTCATAAATGTCATTTTCTAAAGATAACTTCTTGGTCTCATACTTGGTCTCCAAATCTAAAATAAAACAAGAAAGCAATCTCATGCTGTTTTCTTTTACTAAAAGAAGCAACATTTCTAATGTAGAAATAAAAGACAACAAAAGTAATCCTTAACCAAAACTCTAAAATATTGT | 0.0302 |
| TCCTTCTCTCCAGCTCCACCTGGTCCTGGGAAGAGGGACTGCCACACCGGATGGACTGAGGTCTGAAGCCAGCTCCTGCCACTTGTGCTCTGTGTCATTTAGGCATCTCCCTCTCTGGCTTCCAGTTCCTCCTCTATGAGTAGGTAATGGGGTTACGCTCCATTTCTTGTGGGGAAATGTGAAGCTCGTATGA | -0.0857 |
| TTTCTTTAAAGTCCATTAACTTTACTTAAGAATACATCCTGGTATTGGTCATTCTTGATATTCTCAGGTACACAGTGTATTTATTTATTTATTTATTTACTTTTGAGATGAAGTCTCGCTCTGTCACCCAGGCTGGAGTGCAGTGGCACGATCTTGGCTCACTGCAACCTCCACCTCCTGGGTTCAAACAATT | 0.536 |
| AAGTCCAAGGTTCTTAGAGGCTTACTGAATGGCTTAGTCATCAACCTGTAGGCAATAATTAATGTGACTCCTACAATATCTCACTCCAACAAAGTCATTTAACTTTTGTGGGTGTTTGTATTAGCTAAGTAAAGGGCTTTTTGTTTTCTAACTTATCTTTGATCTTCTTGGTTGGGAGACCAAACAACATATA | 0.163 |
| GCGGCGCCTGGCTCTGCGAGTCGGAGCTGCCACAGCCCAGCTGCATCTGTGCACTCAGGCAGAGGCTGTCAAGGTCTGGGAGGCCTTAGTTCCCTGTTTACTCTTATTATCTCTGAGGAAATGTCTCCATGCTTGGAAGGCCCTTGAAAGAGGATACGTCGATGGGAAACTTCTCAGAGGAAGCCTGCTGATG | 0.108 |
| ATTGATATAATAAAAAAACACTGATAAAGTTTATTAAAACACTTAAAGGACATTTCTCATTTTGCATAATATTTTGTAATAAAATCATCTATGTAAATATGGAAAATGTGTAGGGAAGTGAGAAGAACATTAACCACACAAAGTGTACCCCTGAGTCTCTATGAGATTTCATTTCCTTTTGTAAAATAAAATG | 0.37 |
| CCTTATTTCTTTTTTGAAAATACAGTGACTTAGCGAGTGATACAGTATGAATGAAAGTTTTGAAGTTGGTTCATGGTGTATAAAGAGAAACAAAGTAATCTAAGCTCTTAATGGAAATACATACTTGGGACCAAACAACAGCCTATCTAAATGTTTTTTTTTGGTATTCATTTGGAAATTAATCAGATAATAA | 0.0102 |

Set 3
Target: CCNA2, cyclin fold, Cln2 fusion (human)
Method: yeast growth competition, sequencing
Matrix: yeast
Notes: strong parent motif
Relative to: not given
Reading: higher = stronger binding
Starting sequence: E2F1 docking peptide (human); PPVKRRLDFETDH; partner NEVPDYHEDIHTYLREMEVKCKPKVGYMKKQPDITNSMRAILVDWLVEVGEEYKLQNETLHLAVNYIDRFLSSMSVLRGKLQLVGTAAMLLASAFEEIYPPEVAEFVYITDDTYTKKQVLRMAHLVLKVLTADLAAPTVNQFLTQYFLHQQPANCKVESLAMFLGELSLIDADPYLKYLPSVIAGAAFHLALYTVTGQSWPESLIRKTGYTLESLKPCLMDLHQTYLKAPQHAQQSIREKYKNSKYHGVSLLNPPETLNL
| Substitution | normalised enrichment score |
| --- | --- |
| PPVKRQLDFETDH [R6Q] | 5.61 |
| PPYKRRLDFETDH [V3Y] | 4.65 |
| PPVKLRLDFETDH [R5L] | 2.42 |
| PPVKRRLDFEFDH [T11F] | 5.98 |
| PPVKRRLDFKTDH [E10K] | 6.02 |
| PPVWRRLDFETDH [K4W] | 5.66 |
| PPVKRDLDFETDH [R6D] | 0.32 |
| PPVKDRLDFETDH [R5D] | 0.0527 |
| PPVKRRLDFESDH [T11S] | 6.01 |

Set 4
Target: ABI1, truncated, D143A, DHFR fusion (Arabidopsis thaliana)
Method: DHFR PCA, deep sequencing
Matrix: yeast
Notes: methotrexate growth selection, single substitutions
Added: (+)-ABA 0.0091 µM
Relative to: wild-type fitted maximum
Reading: higher = stronger binding
Starting sequence: PYL1, truncated, DHFR fusion (Arabidopsis thaliana); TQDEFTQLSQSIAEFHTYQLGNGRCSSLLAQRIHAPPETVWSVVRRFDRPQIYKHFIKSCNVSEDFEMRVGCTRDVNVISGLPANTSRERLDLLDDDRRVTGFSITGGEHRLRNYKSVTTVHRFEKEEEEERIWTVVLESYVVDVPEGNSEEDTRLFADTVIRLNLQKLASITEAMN
| Substitution | relative binding score |
| --- | --- |
| V161S | 4.14% |
| T135C | 8.05% |
| N85E | 41.5% |
| T73E | 26.4% |
| S140G | 2.69% |
| F15R | 1.61% |
| V100Q | 0.501% |
| H16V | 2.25% |
| D48P | -6.8% |
| Q2K | 21.9% |
| N85T | 68.5% |
| R74K | -0.268% |
| S59E | 27.2% |
| L156R | 3.95% |

Set 5
Target: PABPC1L2, full length, GST fusion (mouse, UniProt A0ABA7IW68)
Method: RNAcompete
Molecule type: RNA
Matrix: in vitro
Concentration: 20 nM
Notes: 7-mer, probes averaged, single round
Relative to: mean of 7-mers
Reading: higher = stronger binding
Target sequence (chain): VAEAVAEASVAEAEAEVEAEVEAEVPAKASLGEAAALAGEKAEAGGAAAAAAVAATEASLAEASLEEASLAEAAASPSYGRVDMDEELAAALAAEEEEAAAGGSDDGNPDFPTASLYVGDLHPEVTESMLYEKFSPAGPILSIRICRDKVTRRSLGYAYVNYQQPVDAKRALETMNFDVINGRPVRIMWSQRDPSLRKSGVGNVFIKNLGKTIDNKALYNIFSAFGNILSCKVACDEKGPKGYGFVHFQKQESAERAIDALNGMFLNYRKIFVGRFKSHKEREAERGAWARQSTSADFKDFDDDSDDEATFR
| Oligonucleotide | 7-mer Z-score |
| --- | --- |
| CUCUCUU | -0.298 |
| ACCGAUU | -0.153 |
| UAUGUGC | -0.0319 |
| GUCGUCA | -0.389 |
| GAGGUUC | -0.193 |
| GCCGAUC | -0.166 |
| CUCACAC | -0.394 |
| CGCUCCA | -0.208 |
| GACACUU | -0.184 |
| UGAUCAG | -0.204 |
| GGGUUAC | 0.0189 |
| CUCUCGG | -0.242 |
| UCUUACA | -0.224 |
| GUUGGCA | 0.1 |
| CGAUGCG | -0.106 |
| CCAAGUC | -0.3 |
| CCCCUAU | -0.371 |
| GCCAGUU | -0.295 |
| CCACCGC | -0.295 |
| CAUUAUA | -0.0156 |
| AGCAACA | 0.167 |
| AUACGGU | -0.195 |
| GAAUCUG | -0.182 |
| UUUCCGA | -0.3 |
| UGAGCUU | -0.335 |

Set 6
Target: RNA binding protein fox-1 homolog 2, RRM domain, GST-SBP tag (RBFOX2, Homo sapiens, UniProt O43251-10, residues 100-194)
Method: RNA Bind-n-Seq
Molecule type: RNA
Matrix: in vitro
Concentration: 365 nM
Notes: natural RNA segment, single round, ends assumed
Relative to: no-protein control
Reading: higher = stronger binding
Constant ends, left off below: GGGAGUUCUACAGUCCGACGAUC … UGGAAUUCUCGGGUGCCAA
Residues (chain): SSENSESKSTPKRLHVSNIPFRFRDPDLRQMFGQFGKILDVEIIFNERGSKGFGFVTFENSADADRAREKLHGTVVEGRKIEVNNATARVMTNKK
| Oligonucleotide | RBNS enrichment (R) |
| --- | --- |
| AGUUGUCAAGGUGUAAGCCUCACUGUAAGUUACAAAGCUACCACUCCCCUCUUUAAGAACACAUAGCUUAGGAUUGCCUUGGCGAUGUGGGCUCUUUUUUGGUUCCAUAU | 0.177 |
| AUCUGGAAUCUGAGGCAUCCUCUGACUCCACUCAAAGAGGGUGAGGGCCUUCUUAAGAUACAAAUGGUGGAGGAUUGCUGCCAGAGAAGUCUGGUCAGAGCCACAGGGUC | 0.342 |
| AUUUCUCCAACCACUCAUCCCUCUUUUUCUUUCUUCCACCACUCCCCACCCCAGCUGUAGUUAAUUUCAGUGCCUUACAAAUCCUAAGCUCAGAGAAAGUUCCAUUUCCG | 1.29 |
| UAGUAGGUUAUUGUAUCAGACUAGAAUUAUAUCUGUUAUAUUUUGCUGUCUUUGUUUUCCUUUGUCUUUCUCCUGUUUGCCAAAAUUCAAUUCAAGUUGUGAUUUUCAAG | 0.391 |
| CCAGUUUCCUCUCCGUCUCACGGAUCCCCCGGCCAUGUUCAGUCCACCCCUCUCUCUCUCUCAACUUCAGAUGCCUCUGGCUGUUCUCAUGUCUAUAAUAAGAACCUCCC | 0.599 |
| AUAAACUCUUGAAGUGGUCUUAAGGUUAGCAAAUAAUUGUCUGUAUUAAACAUGGCGUUAUUUAAGUAGUCCUGCUGCAAGAAAGGCACUUCAGUGAAUAUGUGACUAGU | 1.33 |
| UGGUCAAUACAUUGCUUUCAUGUUUUAAAUUUAAGGAAAAAUUUUAUCUGAUAUUUUUCCAAAUUAAAUAAGUUAGAGAAUGCAAUCGGCGGAUGUGGGGGCGGCCAUCU | 0.466 |
| UUUGUUCUUUCAUUUCUCCCAGCACUCACUUUCUGCCUGAGUCCGGUCCAAGGACUUUUACUUUGCGCUUCGUAACUACUGCCAGCUUCUCCUCUCCUGGCCCUGCUCCC | 1.36 |
| CUGGGCGGGCUACCUCUGAGAACGGCUGAAAUGGUGCCCAGUCCAUCAGCAGUGAUGGAAUUUGCUGGAGGACUAGGCCAGAGCAAGCCUCACUGCCACUGUGCCUUUGG | 0.567 |
| ACGUCUGACAAAUGUGUGUAUGUGCUUUGAGCACUGUGUACAUCUUAGGAUAAUGGUGGACAUUUCAGUGCAUGUUUAGCUAAUGAACUUAGUUUUCUUUGCCCUUUCCA | 0.913 |
| UGUCUGAGUCCCUUGAUCAUUGUCCUUUACCUCACAGUCUCUAGGAUUCCUGACUCAGGCUGACCUCUCUCUCUGGUCCCAGACUGCCUCCUUGCCCAGGCCUCUCUCAC | 0.333 |
| CUUUUCAGACUGGGGUGGGGGCUGAGCAUGCUUGUGCAGAAAGAAGCCAUAGCCAGAAAGGACAGAAUCUCUCCCCCACUCCCUUGCCCCAUAACCAAACAUAAGCUAGC | 0.904 |

For quick reference, copied from above (set 5):
| Oligonucleotide | 7-mer Z-score |
| --- | --- |
| GCCAGUU | -0.295 |
| CCACCGC | -0.295 |
| CAUUAUA | -0.0156 |
| AGCAACA | 0.167 |
| AUACGGU | -0.195 |
| GAAUCUG | -0.182 |
